Results from different studies.
Protocols differ between the studies behind these lines. Values joined by “and” are separate records of one study, mostly repeats; a detail may differ. ± gives the spread as reported.
E3 ubiquitin-protein ligase NEDD4: E3 ubiquitin-protein ligase NEDD4 (Homo sapiens, UniProt P46934)
Lysophospholipase-like protein 1: Lysophospholipase-like protein 1 (Mus musculus, UniProt Q3UFF7)
Grm2: Metabotropic glutamate receptor 2 (Grm2, Rattus norvegicus, UniProt P31421)
GRM4: Metabotropic glutamate receptor 4 (GRM4, Homo sapiens, UniProt Q14833)
GLP1R: Glucagon-like peptide 1 receptor (GLP1R, Homo sapiens, UniProt P43220)
RPA1 N-terminal domain: Replication protein A 70 kDa DNA-binding subunit, N-terminal domain (RPA1, Homo sapiens, UniProt P27694)
WEE1/CRBN: WEE1/CRBN (Homo sapiens, UniProt P30291+Q96SW2)

Chains of the proteins cited; added tags and fusions are not shown. Lines headed by an entry give the natural chain unless they say otherwise; changes in a name come on top. Residues count along the entry.
UniProt P46934, whole entry, looked up: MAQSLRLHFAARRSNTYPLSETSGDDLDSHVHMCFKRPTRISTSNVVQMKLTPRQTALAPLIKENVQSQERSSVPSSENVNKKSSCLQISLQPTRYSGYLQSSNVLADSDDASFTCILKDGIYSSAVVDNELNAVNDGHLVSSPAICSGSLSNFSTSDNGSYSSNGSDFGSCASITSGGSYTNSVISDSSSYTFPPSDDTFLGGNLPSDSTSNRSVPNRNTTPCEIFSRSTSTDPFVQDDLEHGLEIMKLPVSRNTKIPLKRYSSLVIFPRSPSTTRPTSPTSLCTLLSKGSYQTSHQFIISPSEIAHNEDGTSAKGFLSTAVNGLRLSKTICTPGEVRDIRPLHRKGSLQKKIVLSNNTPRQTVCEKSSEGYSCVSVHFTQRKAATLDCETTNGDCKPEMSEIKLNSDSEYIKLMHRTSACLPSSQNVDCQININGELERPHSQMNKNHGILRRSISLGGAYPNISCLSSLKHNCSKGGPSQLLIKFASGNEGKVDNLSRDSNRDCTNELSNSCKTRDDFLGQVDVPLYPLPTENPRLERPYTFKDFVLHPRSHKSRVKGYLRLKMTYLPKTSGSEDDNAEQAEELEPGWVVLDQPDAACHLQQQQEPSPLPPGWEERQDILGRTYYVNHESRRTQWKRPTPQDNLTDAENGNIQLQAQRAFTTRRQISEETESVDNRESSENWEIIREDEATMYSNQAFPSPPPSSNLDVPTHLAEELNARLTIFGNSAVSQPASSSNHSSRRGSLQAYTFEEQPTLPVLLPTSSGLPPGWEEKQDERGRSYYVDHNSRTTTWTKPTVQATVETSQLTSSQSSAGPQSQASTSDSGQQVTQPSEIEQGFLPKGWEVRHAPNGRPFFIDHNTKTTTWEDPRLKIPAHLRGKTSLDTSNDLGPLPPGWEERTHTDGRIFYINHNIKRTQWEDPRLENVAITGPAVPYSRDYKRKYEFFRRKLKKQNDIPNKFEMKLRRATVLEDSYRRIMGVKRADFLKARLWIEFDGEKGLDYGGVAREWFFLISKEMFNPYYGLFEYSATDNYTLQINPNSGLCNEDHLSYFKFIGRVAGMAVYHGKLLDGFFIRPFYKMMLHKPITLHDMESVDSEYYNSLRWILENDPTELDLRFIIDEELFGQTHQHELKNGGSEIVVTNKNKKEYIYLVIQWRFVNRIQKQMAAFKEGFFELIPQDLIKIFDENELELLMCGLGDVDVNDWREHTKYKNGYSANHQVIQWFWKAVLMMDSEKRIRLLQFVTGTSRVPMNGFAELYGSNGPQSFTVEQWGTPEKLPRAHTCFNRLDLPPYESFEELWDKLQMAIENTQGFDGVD
UniProt Q3UFF7, whole entry: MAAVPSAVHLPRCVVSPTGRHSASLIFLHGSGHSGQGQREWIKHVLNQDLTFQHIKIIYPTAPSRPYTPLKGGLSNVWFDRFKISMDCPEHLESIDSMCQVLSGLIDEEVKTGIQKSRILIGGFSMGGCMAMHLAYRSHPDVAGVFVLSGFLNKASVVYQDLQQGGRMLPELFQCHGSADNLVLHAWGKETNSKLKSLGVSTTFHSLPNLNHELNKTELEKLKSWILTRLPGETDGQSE
UniProt Q14833, 33-912 limits assumed: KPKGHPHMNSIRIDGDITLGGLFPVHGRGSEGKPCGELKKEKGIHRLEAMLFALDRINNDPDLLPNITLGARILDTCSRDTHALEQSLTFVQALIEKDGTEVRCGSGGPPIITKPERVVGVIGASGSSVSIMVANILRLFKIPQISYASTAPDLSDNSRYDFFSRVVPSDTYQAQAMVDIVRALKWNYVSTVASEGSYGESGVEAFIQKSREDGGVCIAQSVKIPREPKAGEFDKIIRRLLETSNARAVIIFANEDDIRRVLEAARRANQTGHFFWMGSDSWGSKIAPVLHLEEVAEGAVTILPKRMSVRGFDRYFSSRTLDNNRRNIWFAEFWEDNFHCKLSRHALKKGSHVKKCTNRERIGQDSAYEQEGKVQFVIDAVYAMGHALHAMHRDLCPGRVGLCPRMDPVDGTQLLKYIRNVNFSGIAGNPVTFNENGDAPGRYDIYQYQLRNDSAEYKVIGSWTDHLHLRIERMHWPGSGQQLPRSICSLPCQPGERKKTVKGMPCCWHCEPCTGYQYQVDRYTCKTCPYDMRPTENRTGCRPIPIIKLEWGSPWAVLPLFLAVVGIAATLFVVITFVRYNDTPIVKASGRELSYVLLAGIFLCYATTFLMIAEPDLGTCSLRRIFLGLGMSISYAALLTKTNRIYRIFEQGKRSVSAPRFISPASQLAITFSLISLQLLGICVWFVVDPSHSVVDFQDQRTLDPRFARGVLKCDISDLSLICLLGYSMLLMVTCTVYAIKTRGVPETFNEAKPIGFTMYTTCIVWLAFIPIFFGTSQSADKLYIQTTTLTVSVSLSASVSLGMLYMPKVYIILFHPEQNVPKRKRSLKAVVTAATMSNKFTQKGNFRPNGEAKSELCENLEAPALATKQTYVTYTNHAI
UniProt P43220, whole entry, looked up: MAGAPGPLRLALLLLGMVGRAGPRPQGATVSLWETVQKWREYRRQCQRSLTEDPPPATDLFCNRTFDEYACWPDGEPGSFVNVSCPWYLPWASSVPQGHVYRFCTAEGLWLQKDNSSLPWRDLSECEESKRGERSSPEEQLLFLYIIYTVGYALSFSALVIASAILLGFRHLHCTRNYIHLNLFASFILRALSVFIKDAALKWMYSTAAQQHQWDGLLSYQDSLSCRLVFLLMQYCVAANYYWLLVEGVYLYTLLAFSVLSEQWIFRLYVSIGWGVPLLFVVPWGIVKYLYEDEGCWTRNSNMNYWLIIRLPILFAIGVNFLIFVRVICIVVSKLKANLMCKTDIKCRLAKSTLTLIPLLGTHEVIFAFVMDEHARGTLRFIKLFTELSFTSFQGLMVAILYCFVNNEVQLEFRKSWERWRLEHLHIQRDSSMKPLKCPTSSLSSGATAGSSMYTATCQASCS
UniProt O15151, 23-111 limits assumed: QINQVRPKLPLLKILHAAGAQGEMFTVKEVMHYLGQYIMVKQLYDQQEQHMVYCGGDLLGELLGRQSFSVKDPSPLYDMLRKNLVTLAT
UniProt Q9GZT9, whole entry: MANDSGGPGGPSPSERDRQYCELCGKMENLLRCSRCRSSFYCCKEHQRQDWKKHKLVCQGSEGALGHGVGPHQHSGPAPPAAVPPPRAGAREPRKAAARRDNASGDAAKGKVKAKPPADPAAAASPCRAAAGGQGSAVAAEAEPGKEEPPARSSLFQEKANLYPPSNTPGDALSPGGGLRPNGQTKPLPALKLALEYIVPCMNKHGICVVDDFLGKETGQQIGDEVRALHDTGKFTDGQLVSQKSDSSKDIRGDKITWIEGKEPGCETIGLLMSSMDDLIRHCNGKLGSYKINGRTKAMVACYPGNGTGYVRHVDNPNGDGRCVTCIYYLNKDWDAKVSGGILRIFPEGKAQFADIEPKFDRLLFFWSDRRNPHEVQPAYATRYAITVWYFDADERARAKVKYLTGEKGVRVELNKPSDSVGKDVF
UniProt P07306, whole entry: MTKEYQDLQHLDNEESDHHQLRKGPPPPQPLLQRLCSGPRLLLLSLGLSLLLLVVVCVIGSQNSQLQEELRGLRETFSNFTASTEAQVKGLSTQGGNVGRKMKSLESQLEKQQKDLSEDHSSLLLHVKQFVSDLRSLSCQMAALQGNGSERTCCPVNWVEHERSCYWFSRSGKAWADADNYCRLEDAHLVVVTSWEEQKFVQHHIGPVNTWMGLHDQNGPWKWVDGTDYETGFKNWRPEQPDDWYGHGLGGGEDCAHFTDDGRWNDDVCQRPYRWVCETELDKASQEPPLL
UniProt P45983, 1-384 isoform 3: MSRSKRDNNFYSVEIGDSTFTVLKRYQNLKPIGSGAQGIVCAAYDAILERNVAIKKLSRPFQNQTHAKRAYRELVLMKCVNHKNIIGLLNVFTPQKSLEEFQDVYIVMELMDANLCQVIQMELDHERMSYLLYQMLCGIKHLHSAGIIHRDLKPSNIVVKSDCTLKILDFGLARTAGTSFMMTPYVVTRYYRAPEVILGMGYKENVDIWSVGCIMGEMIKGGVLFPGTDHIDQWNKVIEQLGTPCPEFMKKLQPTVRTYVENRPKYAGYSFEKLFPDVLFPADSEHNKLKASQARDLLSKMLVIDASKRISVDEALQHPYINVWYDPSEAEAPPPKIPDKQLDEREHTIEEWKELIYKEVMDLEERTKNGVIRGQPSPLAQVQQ
UniProt O60502, whole entry: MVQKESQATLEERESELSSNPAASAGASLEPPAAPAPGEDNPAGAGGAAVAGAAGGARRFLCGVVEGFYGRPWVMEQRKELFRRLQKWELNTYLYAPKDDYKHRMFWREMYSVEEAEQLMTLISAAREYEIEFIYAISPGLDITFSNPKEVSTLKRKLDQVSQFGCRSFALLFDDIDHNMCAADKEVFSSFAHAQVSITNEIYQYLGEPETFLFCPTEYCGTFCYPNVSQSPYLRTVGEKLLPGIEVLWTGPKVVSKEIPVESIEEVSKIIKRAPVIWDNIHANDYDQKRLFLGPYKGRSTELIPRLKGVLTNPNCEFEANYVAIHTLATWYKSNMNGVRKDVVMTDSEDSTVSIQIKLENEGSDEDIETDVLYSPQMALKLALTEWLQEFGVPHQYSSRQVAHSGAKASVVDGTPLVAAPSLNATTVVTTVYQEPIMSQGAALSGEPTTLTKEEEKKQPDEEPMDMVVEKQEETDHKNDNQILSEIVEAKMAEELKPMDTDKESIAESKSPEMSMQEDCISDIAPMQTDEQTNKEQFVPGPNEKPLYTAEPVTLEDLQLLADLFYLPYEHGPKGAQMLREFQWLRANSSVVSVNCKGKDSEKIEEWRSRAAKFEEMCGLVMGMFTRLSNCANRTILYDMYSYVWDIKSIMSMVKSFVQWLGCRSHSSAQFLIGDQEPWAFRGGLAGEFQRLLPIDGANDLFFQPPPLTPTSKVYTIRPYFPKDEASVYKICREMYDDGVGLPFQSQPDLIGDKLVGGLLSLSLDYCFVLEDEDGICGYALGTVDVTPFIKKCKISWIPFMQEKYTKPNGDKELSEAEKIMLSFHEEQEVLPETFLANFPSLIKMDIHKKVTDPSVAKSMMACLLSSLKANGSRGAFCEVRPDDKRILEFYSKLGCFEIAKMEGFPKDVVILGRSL
UniProt P05067, 672-713 limits assumed: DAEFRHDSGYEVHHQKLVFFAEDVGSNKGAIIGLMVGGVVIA
UniProt P05067, whole entry, looked up: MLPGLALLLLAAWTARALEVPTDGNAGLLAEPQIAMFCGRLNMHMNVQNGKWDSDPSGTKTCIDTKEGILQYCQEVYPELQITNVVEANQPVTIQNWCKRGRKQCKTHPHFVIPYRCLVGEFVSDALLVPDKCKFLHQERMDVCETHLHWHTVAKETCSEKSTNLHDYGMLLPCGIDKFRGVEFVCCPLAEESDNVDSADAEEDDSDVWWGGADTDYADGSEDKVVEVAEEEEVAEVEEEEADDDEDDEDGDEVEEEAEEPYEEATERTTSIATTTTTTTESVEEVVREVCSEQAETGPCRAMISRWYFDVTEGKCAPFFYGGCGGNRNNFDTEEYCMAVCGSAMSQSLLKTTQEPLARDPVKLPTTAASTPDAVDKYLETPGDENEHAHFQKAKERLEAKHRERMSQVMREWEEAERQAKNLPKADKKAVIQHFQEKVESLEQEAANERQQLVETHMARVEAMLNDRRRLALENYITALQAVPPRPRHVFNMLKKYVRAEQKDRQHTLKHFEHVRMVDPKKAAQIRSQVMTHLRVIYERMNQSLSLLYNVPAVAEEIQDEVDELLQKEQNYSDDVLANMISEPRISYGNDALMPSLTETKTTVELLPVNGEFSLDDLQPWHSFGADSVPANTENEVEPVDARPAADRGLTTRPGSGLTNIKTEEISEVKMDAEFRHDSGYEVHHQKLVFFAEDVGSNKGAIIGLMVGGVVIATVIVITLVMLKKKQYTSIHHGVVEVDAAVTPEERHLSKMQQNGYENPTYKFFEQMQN
UniProt P34913, whole entry: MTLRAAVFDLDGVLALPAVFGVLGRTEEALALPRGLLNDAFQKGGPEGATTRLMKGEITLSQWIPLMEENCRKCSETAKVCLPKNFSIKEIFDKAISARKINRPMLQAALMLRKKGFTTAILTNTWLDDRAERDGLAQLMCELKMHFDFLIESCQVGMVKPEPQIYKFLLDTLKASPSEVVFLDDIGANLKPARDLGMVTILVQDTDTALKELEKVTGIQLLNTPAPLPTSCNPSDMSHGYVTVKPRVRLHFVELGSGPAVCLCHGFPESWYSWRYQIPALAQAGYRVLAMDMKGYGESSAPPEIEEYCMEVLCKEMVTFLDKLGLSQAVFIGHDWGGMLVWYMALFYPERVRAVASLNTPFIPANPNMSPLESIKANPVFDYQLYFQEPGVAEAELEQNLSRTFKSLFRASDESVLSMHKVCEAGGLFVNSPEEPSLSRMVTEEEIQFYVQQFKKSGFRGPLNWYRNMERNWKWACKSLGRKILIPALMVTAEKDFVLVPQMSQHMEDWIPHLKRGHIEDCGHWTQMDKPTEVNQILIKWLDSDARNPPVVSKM

CCOC(=O)/C=C/CNCCCCCN1c2ccccc2CCc2ccc(Cl)cc21 — ubiquitination TR-FRET signal AUC (E3 ubiquitin-protein ligase NEDD4; inhibitor, Ub-TR-FRET; 0.01524 µM, 1 h preincubation, HECT domain, added: ATP 2 mM; higher = more ubiquitination): 71500 a.u. and 98700 a.u. and 70400 a.u. and 70100 a.u. and 98500 a.u. and 101000 a.u.
COc1cc(Cl)ccc1-c1nc(Nc2nc3ccccc3o2)ncc1C#N — maximal response (Grm5 (Rattus norvegicus, UniProt P31424); calcium mobilization, negative allosteric modulator; added: glutamate EC80; baseline: glutamate maximum): 2 ± 0.2%
Nc1nc(NCCc2ccc(Cl)cc2)nn1S(=O)(=O)c1cccc2ccccc12 — probe labelling (Lysophospholipase-like protein 1; activator, gel-based ABPP FP-rhodamine; baseline: DMSO): 1.6 fold
NC(=O)c1cn(-c2ccc(F)cc2)c2ccc(NCCc3cccnc3)cc2c1=O — response (Grm2; calcium mobilization, negative allosteric modulator; 30 µM, added: glutamate 100 µM; baseline: glutamate maximum): 1.98 ± 0.67%
COc1ccc(NC(=O)CN2CCCN(S(=O)(=O)c3ccc(F)c(F)c3)CC2)c(OC)c1 — maximal response (GRM4; calcium mobilization, positive allosteric modulator; CHO cells with Gqi5; added: glutamate; baseline: PHCCC maximal response): 27 ± 1.8%
CC(C)Oc1cc(C#N)ccc1C1=N[C@@H](c2cccc(Cl)c2)[C@@H](c2ccc(Cl)cc2)N1C(=O)N1CCNC(=O)C1 — ΔG (Protein Mdm4 (MDM4, Homo sapiens, UniProt O15151); isothermal titration calorimetry; 298 K): -8.6 ± 0.2 kcal/mol
O=C(O)c1ccnc(C(=O)O)c1Nc1ccccc1[N+](=O)[O-] — remaining activity (Egl nine homolog 1 (EGLN1, Homo sapiens, UniProt Q9GZT9); inhibitor, HTRF; 400 µM): 100%
NCC(c1ccccc1)c1cccc(Oc2ccccc2)c1 (stereo not shown) — efficacy decrease (Trace amine-associated receptor 1 (Rattus norvegicus, UniProt Q923Y9, N287Y); cAMP production, agonist; mutant; baseline: wild type): 46%
COc1ccc(NC(=O)CN2CCCN(S(=O)(=O)c3cccnc3)CC2)c(OC)c1 — maximal response (GRM4; calcium mobilization, positive allosteric modulator; CHO cells with Gqi5; added: glutamate; baseline: PHCCC maximal response): 25.6 ± 4.6%
COc1ccc2c(c1)CN(C(=O)OC(C(F)(F)F)C(F)(F)F)C2 — activity (FAAH (Homo sapiens, UniProt O00519); enzyme activity, inhibitor, fluorescence AAMCA substrate; 1 µM): inactive
C/C=C/Cn1c(Cc2cc(OC)c(OC)c(OC)c2)nc2c(N)ncnc21 — TΔS (Heat shock protein HSP 90-alpha, N-terminal domain (HSP90AA1, Homo sapiens, UniProt P07900); isothermal titration calorimetry; 298 K, N-terminal domain): -3.15 ± 0.23 kcal/mol
COC(=O)[C@@]1(C)C=C(C(=O)Nc2cccc(C(=O)NC34CC(Nc5nccc(-c6cccnc6)n5)(C3)C4)c2)C(=O)CC1 — remaining activity (MAPK9 (Homo sapiens, UniProt P45984); enzyme activity, inhibitor; 8.363e-05 µM): 1.01 fraction of control
Cc1ccc(S(=O)(=O)OCCc2cn(CCc3c(C)[nH]c4cc(Cl)cc(Cl)c34)nn2)cc1 — Emax (GLP1R; cAMP accumulation, positive allosteric modulator, HTRF; 0.6 µM, purified compound, added: GLP-1(9-36) at EC20; baseline: BETP): 106 ± 3%
c1ccc2c(CCNCCSSCCNCCc3c[nH]c4ccccc34)c[nH]c2c1 — activity increase (G6PD (Homo sapiens, UniProt P11413); activator; concentration not given, wild type enzyme): 20%
Cn1ccnc1SCC(=O)Nc1ccc2nc(SCC(=O)NC3CC3)sc2c1 — activity (Estrogen receptor, ligand-binding domain; with SRC-3 (ESR1, Homo sapiens, UniProt P03372); coactivator binding, TR-FRET; concentration not given, added: SRC-3 fragment): inactive
O=C(Nc1ccc(F)cc1)C12CC1/C(=N\O)c1cc(Cl)ccc1O2 (stereo not shown) — fold shift of glutamate EC50 (GRM4; positive allosteric modulator, calcium mobilization; CHO expressing Gqi5; 30 µM, added: glutamate concentration-response; baseline: glutamate alone, leftward shift): 1.8 ± 0.2 fold
O=S(=O)(Cc1ccc(-c2nc(-c3cccnc3)no2)o1)c1ccc(Cl)cc1 — binding stoichiometry (Catenin beta-1, residues 141-305 (CTNNB1, Homo sapiens, UniProt P35222); isothermal titration calorimetry; concentration not given, 25 °C): 0.93
CC(=O)N[C@H]1[C@H]2OC[C@](CO)(O2)[C@H](O)[C@@H]1O — affinity ratio (Asialoglycoprotein receptor 1 (Homo sapiens, UniProt P07306); binding, surface plasmon resonance; baseline: GalNAc, higher = stronger binding): ~6 fold
Cc1cc(NC(=O)c2cccc(NC(=O)C3=CC(C)(C)CCC3=O)c2)ccc1Nc1nccc(-c2cccnc2)n1 — remaining activity (MAPK8 (Homo sapiens, UniProt P45983); kinase activity, inhibitor; 0.06097 µM, unit not given, added: 10 mM GSH; baseline: DMSO): 0.864
Cc1ccc(C(=O)Nc2cccc(C)c2C(=O)O)cc1S(=O)(=O)Nc1ccc(Cl)c(Cl)c1 — ligand efficiency (RPA1 N-terminal domain; binding, fluorescence polarisation competition; added: FITC-ATRIP probe): 0.19
CC(=O)Nc1ncc(CN2CC[C@H](Oc3cccc(F)n3)C[C@@H]2C)s1 [isotope labelled] — Bmax (Protein O-GlcNAcase (OGA, Homo sapiens, UniProt O60502); saturation binding; human hippocampus homogenate; radiolabelled compound): 9.8 ± 0.8 nM
Oc1cccc(/C=C/c2c[nH]c3ccc(F)cc23)c1 — inhibition (Amyloid-beta precursor protein, Aβ1-40 (APP, Homo sapiens, UniProt P05067); Aβ40 aggregation, thioflavin T fluorescence; 25 µM): 31%
Cc1ccc(C(=O)Nc2ccccc2C(=O)O)cc1S(=O)(=O)NC1CCCCCC1 — ligand efficiency (RPA1 N-terminal domain; binding, fluorescence polarisation competition; added: FITC-ATRIP probe): 0.19
Nc1nc(SCc2ccc(Cl)cc2)nn1S(=O)(=O)c1ccc2[nH]c(=O)[nH]c2c1 — probe labelling (Lysophospholipase-like protein 1; activator, gel-based ABPP FP-rhodamine; baseline: DMSO): 2.7 fold
O=C(Nc1ccccc1F)C12CC1/C(=N\O)c1ccccc1O2 (stereo not shown) — response (GRM4; positive allosteric modulator, calcium mobilization; CHO expressing Gqi5; concentration not given, added: glutamate EC20; baseline: glutamate 1 mM): 122 ± 4.3%
CCOCCOCCOCCCCCNC(=O)NC12CC3CC(C1)C(O)C(C3)C2 (stereo not shown) — fold decrease in inhibitory potency (EPHX2 (Homo sapiens, UniProt P34913); enzyme activity, inhibitor, fluorescent; concentration not given; baseline: AEPU): 30 to 100 fold
CCOC(=O)/C=C/CNCCCN1c2ccccc2CCc2ccccc21 — ubiquitination TR-FRET signal AUC (E3 ubiquitin-protein ligase NEDD4; inhibitor, Ub-TR-FRET; 0.1372 µM, 1 h preincubation, HECT domain, added: ATP 2 mM; higher = more ubiquitination): 121000 a.u. and 129000 a.u. and 128000 a.u.
COc1ccc(-n2cc(C(N)=O)c(=O)c3cc(CCc4cnc(C)nc4)ccc32)cc1 — response (Grm2; calcium mobilization, negative allosteric modulator; 30 µM, added: glutamate 100 µM; baseline: glutamate maximum): 1.61%
CCc1ccc(NC(=O)c2ccc(C)c(S(=O)(=O)Nc3cccc(Cl)c3)c2)c(C(=O)O)c1 — ligand efficiency (RPA1 N-terminal domain; binding, fluorescence polarisation competition; added: FITC-ATRIP probe): 0.23
CC(C)C[C@H](NC(=O)[C@@H]1CCCN1C(=O)[C@H](CCC(N)=O)NC(=O)CNC(=O)[C@H](CO)NC(=O)[C@H](CCCNC(=N)N)NC(=O)[C@H](Cc1ccccc1)NC(=O)[C@H](CC(N)=O)NC(=O)[C@H](CCCNC(=N)N)NC(=O)[C@@H](NC(=O)c1ccccc1N)C(C)C)C(=O)N[C@@H](CCC(N)=O)C(=O)N[C@@H](CC(N)=O)C(=O)N[C@@H](CCCCN)C(=O)N[C@H](C(=O)N[C@@H](CCC(N)=O)C(=O)NCCNc1ccc([N+](=O)[O-])cc1[N+](=O)[O-])C(C)C — kcat (Mitochondrial intermediate peptidase (MIPEP, Homo sapiens, UniProt Q99797); substrate, FRET peptide hydrolysis): 0.223 s⁻¹
CC(C)n1nnc(-c2cc(O)cc(Nc3ncnn4ccc(CN5CCC(N)CC5)c34)c2)n1 — potency fold increase (AAK1 (Homo sapiens, UniProt Q2M2I8); enzyme activity, inhibitor; baseline: 18): 2 fold
Fc1ccc(-c2noc3ncnc(Nc4ccc5c(c4)OCO5)c23)cc1 — iodide influx rate (CFTR (Homo sapiens, UniProt P13569, del508-508); FRT expressing ΔF508-CFTR; baseline: DMSO): 90 µM/s
CCCCCCCCCCCCCC[C@@H](O)[C@@H](O)[C@H](CO[C@H]1O[C@H](CO)[C@H](O)[C@H](O)[C@H]1O)NC(=O)CCCCCCCCCCc1ccccc1 — binding affinity (Cd1d1, dimeric Ig fusion (Mus musculus, UniProt P11609); ligand, competitive microarray binding; concentration not given; baseline: α-GalCer, higher = stronger binding): ~1 orders of magnitude
O=C(N[C@H]1CCCC[C@@H]1O)[C@@H]1CN(Cc2ccc(-n3cccn3)cc2)c2ccccc2O1 — efficacy (CHRM1 (Homo sapiens, UniProt P11229); calcium mobilization, agonist; high-expression cell line; baseline: acetylcholine max): 16%
CCOC(=O)CCC(C(=O)/C=C/c1ccc(O)c(OC(F)(F)F)c1)C(=O)/C=C/c1ccc(O)c(OC(F)(F)F)c1 — Aβ band density (APP (Homo sapiens, UniProt P05067); SDS-PAGE western blot, item: Aβ1-42 species 75-200 kDa; 30 µM, 24 h, 37 °C, added: Aβ 10 µM; baseline: DMSO control): 1030 ± 185%
CCOC(=O)/C=C/CNCCN1c2ccccc2CCc2ccc(Cl)cc21 — ubiquitination TR-FRET signal AUC (E3 ubiquitin-protein ligase NEDD4; inhibitor, Ub-TR-FRET; 100 µM, 1 h preincubation, HECT domain, added: ATP 2 mM; higher = more ubiquitination): 136000 a.u. and 137000 a.u.
CC(C)(C)Nc1c(-c2ccc3c(c2)CN(C2CCC(=O)NC2=O)C3=O)nc2ccccn12 (stereo not shown) — Dmax (WEE1/CRBN; degrader, HiBiT; Jurkat; 5 h): > 98%
Nc1nc(NCCc2ccc(Cl)cc2)nn1S(=O)(=O)c1cccc(Cl)c1 — probe labelling (Lysophospholipase-like protein 1; activator, gel-based ABPP FP-rhodamine; baseline: DMSO): 1.2 fold
CC(=O)N[C@@H](CC(C)C)C(=O)N[C@@H](CCCNC(=N)N)C(=O)N[C@@H](CO)C(=O)N[C@@H](CCCNC(=N)N)C(=O)Nc1ccc2c(C)cc(=O)oc2c1 — kcat/Km (MALT1 (Homo sapiens, UniProt Q9UDY8); substrate, fluorogenic peptide hydrolysis; pH 7.5, catalytic domain 285 or 294 nM): 2900 M⁻¹ s⁻¹
CC(C)(Cn1cc(CNC(=O)Cc2ccccc2)nn1)c1c[nH]c2ccccc12 — Emax (GLP1R; cAMP accumulation, positive allosteric modulator, HTRF; 0.6 µM, crude reaction product, added: GLP-1(9-36) at EC20; baseline: BETP): 99.8%
CCOC(=O)/C=C/CNCCCCN1c2ccccc2CCc2ccc(Cl)cc21 — ubiquitination TR-FRET signal AUC (E3 ubiquitin-protein ligase NEDD4; inhibitor, Ub-TR-FRET; 0.04572 µM, 1 h preincubation, HECT domain, added: ATP 2 mM; higher = more ubiquitination): 92500 a.u. and 88500 a.u. and 140000 a.u. and 78100 a.u. and 79800 a.u. and 83200 a.u.
O=C(O)c1cc(C(=O)N[C@@H](Cc2ccc(O)cc2)C(=O)O)cc([C@H]2CCN[C@@H]2C(=O)O)c1 — specific binding (Grik2 (Rattus norvegicus, UniProt P42260); radioligand binding; Sf9 membranes; 10 µM, homomeric receptor, added: [3H]kainate): 84 ± 9%
O=C1CCC(N2Cc3cc(-c4nc5ccccn5c4Nc4ccc5c(c4)OCCO5)ccc3C2=O)C(=O)N1 (stereo not shown) — Dmax (WEE1/CRBN; degrader, HiBiT; Jurkat; 5 h): 63%

Some of these lines once more:
c1ccc2c(CCNCCSSCCNCCc3c[nH]c4ccccc34)c[nH]c2c1 — activity increase (G6PD (Homo sapiens, UniProt P11413); activator; concentration not given, wild type enzyme): 20%
O=C(Nc1ccc(F)cc1)C12CC1/C(=N\O)c1cc(Cl)ccc1O2 (stereo not shown) — fold shift of glutamate EC50 (GRM4; positive allosteric modulator, calcium mobilization; CHO expressing Gqi5; 30 µM, added: glutamate concentration-response; baseline: glutamate alone, leftward shift): 1.8 ± 0.2 fold
Cc1ccc(C(=O)Nc2cccc(C)c2C(=O)O)cc1S(=O)(=O)Nc1ccc(Cl)c(Cl)c1 — ligand efficiency (RPA1 N-terminal domain; binding, fluorescence polarisation competition; added: FITC-ATRIP probe): 0.19
CCOC(=O)/C=C/CNCCN1c2ccccc2CCc2ccc(Cl)cc21 — ubiquitination TR-FRET signal AUC (E3 ubiquitin-protein ligase NEDD4; inhibitor, Ub-TR-FRET; 100 µM, 1 h preincubation, HECT domain, added: ATP 2 mM; higher = more ubiquitination): 136000 a.u. and 137000 a.u.
CC(C)n1nnc(-c2cc(O)cc(Nc3ncnn4ccc(CN5CCC(N)CC5)c34)c2)n1 — potency fold increase (AAK1 (Homo sapiens, UniProt Q2M2I8); enzyme activity, inhibitor; baseline: 18): 2 fold
CC(C)Oc1cc(C#N)ccc1C1=N[C@@H](c2cccc(Cl)c2)[C@@H](c2ccc(Cl)cc2)N1C(=O)N1CCNC(=O)C1 — ΔG (Protein Mdm4 (MDM4, Homo sapiens, UniProt O15151); isothermal titration calorimetry; 298 K): -8.6 ± 0.2 kcal/mol
